Results gathered from unrelated publications.
Protocols differ between the studies behind these lines. “And” joins repeats or separate records; there may be more than shown. Numbers after ± are the reported error.
DNA dC->dU-editing enzyme APOBEC-3B: DNA dC->dU-editing enzyme APOBEC-3B (Homo sapiens, UniProt Q9UH17)
UniProt Q9UH17, sequence (whole entry, looked up): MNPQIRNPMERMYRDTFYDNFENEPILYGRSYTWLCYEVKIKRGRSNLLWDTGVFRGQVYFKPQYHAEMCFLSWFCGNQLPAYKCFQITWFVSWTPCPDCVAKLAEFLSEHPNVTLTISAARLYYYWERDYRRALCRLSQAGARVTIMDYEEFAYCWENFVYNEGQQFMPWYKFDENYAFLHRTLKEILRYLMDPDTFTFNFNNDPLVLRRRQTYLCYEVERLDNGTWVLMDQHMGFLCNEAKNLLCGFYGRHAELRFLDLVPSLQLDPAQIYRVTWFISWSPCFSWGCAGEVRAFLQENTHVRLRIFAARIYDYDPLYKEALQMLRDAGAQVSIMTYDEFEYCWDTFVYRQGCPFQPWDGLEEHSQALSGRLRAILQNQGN
SLC7A5: Large neutral amino acids transporter small subunit 1 (SLC7A5, Homo sapiens, UniProt Q01650)
UniProt Q01650, sequence (whole entry, looked up): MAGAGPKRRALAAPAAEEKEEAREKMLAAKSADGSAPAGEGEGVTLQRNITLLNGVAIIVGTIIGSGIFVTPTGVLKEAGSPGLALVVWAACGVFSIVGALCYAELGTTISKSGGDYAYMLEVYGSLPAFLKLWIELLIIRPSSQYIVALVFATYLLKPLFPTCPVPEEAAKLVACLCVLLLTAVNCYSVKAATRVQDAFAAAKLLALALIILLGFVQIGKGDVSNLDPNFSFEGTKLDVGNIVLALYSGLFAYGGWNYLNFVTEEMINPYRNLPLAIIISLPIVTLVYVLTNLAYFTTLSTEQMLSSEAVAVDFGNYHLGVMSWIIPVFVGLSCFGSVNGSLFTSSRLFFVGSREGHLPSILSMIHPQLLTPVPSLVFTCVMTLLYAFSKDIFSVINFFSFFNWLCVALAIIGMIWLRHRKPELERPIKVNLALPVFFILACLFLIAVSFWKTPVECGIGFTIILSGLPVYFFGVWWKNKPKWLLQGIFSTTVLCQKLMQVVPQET
Uncharacterized protein: Uncharacterized protein (Trypanosoma brucei brucei, UniProt Q386Q8)
Gria1: Glutamate receptor 1 (Gria1, Rattus norvegicus, UniProt P19490)
ppa: Inorganic pyrophosphatase (ppa, Escherichia coli, UniProt P0A7A9)
UniProt P0A7A9, sequence (whole entry, looked up): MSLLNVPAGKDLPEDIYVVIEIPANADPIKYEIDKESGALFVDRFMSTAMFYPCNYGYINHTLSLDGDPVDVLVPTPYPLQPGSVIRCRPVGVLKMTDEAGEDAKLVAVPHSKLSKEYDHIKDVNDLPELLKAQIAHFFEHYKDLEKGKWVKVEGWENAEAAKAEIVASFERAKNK
ADRB2: Beta-2 adrenergic receptor (ADRB2, Homo sapiens, UniProt P07550)
UniProt P07550, sequence (whole entry, looked up): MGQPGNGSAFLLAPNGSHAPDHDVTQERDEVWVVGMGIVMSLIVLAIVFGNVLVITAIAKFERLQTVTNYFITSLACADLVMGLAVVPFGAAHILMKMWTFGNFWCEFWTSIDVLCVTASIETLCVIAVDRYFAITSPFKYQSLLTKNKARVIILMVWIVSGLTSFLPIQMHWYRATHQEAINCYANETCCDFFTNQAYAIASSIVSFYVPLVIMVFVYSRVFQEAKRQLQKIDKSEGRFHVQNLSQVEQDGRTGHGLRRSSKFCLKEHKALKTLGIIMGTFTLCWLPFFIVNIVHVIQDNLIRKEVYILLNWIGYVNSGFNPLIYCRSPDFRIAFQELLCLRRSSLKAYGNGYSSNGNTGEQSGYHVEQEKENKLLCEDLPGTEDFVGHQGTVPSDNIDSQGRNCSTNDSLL
MAOB: Amine oxidase [flavin-containing] B (MAOB, Homo sapiens, UniProt P27338)
UniProt P27338, sequence (whole entry, looked up): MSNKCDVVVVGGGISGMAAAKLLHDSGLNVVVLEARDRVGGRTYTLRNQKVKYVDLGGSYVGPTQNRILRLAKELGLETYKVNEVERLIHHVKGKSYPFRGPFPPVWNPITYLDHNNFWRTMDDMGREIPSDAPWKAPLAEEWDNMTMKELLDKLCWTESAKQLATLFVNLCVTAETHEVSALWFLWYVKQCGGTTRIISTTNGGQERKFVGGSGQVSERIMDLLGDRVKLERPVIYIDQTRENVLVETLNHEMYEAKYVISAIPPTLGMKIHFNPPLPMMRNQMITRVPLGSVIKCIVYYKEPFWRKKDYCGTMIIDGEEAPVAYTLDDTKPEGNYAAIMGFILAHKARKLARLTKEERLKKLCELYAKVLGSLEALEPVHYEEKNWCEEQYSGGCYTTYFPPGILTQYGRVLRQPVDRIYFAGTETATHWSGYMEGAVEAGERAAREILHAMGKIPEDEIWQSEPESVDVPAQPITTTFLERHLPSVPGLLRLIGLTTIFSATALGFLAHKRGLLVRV
NTSR1: Neurotensin receptor type 1 (NTSR1, Homo sapiens, UniProt P30989)
UniProt P30989, sequence (whole entry, looked up): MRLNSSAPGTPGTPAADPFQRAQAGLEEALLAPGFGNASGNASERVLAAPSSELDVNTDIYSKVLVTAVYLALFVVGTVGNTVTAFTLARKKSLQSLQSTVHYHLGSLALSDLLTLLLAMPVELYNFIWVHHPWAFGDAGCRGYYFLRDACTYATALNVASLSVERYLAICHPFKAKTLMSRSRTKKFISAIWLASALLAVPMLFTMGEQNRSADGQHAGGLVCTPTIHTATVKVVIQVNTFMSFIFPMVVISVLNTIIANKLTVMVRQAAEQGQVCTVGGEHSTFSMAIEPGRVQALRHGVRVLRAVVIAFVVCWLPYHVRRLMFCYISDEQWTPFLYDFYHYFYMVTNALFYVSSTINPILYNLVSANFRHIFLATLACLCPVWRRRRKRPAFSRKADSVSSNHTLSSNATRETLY
NNMT: Nicotinamide N-methyltransferase (NNMT, Homo sapiens, UniProt P40261)
UniProt P40261, sequence (whole entry, looked up): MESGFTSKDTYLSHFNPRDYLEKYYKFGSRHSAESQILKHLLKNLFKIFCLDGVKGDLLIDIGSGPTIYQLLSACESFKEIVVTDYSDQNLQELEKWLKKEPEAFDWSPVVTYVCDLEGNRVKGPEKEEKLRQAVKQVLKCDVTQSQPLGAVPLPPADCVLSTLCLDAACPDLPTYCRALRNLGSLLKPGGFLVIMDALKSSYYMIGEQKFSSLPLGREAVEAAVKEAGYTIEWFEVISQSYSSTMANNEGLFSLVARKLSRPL
PIK3CD: Phosphatidylinositol 4,5-bisphosphate 3-kinase catalytic subunit delta isoform (PIK3CD, Homo sapiens, UniProt O00329)
TDP1: Tyrosyl-DNA phosphodiesterase 1 (TDP1, Homo sapiens, UniProt Q9NUW8)
UniProt Q9NUW8, sequence (whole entry, looked up): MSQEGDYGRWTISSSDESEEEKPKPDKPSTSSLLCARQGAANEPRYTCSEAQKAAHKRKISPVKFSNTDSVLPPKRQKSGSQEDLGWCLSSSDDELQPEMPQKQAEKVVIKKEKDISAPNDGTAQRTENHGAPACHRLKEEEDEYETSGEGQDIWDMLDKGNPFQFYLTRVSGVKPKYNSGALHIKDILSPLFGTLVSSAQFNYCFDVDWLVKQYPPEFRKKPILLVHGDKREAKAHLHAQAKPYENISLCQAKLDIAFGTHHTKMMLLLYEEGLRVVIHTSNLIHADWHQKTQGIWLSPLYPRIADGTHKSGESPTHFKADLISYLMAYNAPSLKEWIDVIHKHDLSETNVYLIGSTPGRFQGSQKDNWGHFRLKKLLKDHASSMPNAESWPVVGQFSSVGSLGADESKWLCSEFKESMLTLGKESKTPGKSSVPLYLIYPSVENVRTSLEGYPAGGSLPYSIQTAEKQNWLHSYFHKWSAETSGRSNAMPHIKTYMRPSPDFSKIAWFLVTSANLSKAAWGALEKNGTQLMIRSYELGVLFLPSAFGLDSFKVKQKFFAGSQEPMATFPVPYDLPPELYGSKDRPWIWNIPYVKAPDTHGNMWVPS
CHRM3: Muscarinic acetylcholine receptor M3 (CHRM3, Homo sapiens, UniProt P20309)
UniProt P22310, sequence (whole entry, looked up): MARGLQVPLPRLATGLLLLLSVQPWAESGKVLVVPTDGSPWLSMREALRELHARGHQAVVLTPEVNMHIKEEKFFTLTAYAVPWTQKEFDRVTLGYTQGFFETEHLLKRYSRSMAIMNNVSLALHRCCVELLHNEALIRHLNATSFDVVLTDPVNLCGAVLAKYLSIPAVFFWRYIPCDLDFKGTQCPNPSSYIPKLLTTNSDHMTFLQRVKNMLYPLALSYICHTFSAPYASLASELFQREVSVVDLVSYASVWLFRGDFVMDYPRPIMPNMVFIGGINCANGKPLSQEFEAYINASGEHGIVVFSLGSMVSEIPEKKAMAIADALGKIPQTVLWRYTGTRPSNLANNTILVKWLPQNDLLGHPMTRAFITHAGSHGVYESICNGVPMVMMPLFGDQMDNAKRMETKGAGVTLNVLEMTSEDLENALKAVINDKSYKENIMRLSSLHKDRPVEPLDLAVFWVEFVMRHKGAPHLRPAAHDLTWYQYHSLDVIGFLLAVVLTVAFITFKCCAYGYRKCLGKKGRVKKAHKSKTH
UniProt P20309, sequence (whole entry, looked up): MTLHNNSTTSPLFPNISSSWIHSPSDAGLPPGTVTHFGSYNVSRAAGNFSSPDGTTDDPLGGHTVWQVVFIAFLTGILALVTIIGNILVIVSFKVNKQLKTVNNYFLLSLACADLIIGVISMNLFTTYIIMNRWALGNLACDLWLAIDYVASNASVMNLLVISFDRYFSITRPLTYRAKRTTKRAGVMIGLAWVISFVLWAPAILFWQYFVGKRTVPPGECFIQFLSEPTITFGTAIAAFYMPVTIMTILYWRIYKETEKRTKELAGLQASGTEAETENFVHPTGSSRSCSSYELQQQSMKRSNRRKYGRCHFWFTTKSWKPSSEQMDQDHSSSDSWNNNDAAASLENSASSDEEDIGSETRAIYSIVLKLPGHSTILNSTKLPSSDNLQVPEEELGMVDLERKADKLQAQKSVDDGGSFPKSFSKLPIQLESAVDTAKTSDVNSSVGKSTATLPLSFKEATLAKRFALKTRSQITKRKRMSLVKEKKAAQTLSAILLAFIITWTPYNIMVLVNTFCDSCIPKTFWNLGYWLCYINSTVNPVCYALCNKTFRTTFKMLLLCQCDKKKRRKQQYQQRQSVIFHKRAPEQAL
UniProt P28074, sequence (whole entry, looked up): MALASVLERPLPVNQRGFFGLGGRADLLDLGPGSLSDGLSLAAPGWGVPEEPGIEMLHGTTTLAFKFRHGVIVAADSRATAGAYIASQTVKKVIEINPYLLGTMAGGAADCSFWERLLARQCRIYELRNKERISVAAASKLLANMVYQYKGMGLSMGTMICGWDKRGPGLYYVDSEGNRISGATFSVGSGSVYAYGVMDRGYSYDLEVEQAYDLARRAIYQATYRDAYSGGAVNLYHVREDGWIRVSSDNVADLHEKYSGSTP
UniProt Q13951, sequence (whole entry, looked up): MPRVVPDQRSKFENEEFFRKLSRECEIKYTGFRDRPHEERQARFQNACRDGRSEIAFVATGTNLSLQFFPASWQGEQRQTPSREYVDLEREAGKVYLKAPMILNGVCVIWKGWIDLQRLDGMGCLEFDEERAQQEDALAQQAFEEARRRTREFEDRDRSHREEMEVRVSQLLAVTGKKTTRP

SMILES | target | test | test system | setting | endpoint | value
CCCC(=O)OC1CCC2(C)C(CCC3(C)C2CC=C2C4C(C)C(C)CCC4(C(=O)O)CCC23C)C1(C)C (centres unmarked) | UGT1A4 (Homo sapiens, UniProt P22310) | enzyme activity, inhibitor | human, liver microsomes | – | IC50 | 1.36 µM and 1.22 µM
O=C(c1cccc(-c2cc(NCCO)ncn2)c1)N1CCCC1c1ccccc1 (centres unmarked) | DNA dC->dU-editing enzyme APOBEC-3B | enzyme activity, inhibitor, HPLC | – | – | IC50 | 757 µM
CO[C@@H](C[C@H]1C(C)=CC[C@@H]2[C@]3(C)C[C@H](O[C@@H]4O[C@@H](C)[C@H](OC(=O)c5cccc(O)c5)[C@@H](O)[C@H]4O)[C@@H](O)C(C)(C)[C@H]3CC[C@]21C)[C@H](N)C(=O)O | SLC7A5 | transporter uptake | – | – | IC50 | 0.25 µM
CC(=O)NC1C(=O)N(c2ccccc2)N=C1C (centres unmarked) | Uncharacterized protein | enzyme activity, inhibitor, coupled colorimetric | – | with: E. coli pyrophosphatase coupling | IC50 | 31.3 µM
O=C(O)Cc1cc2c(cc1C(=O)c1ccccc1Cl)OCO2 | Gria1 | ion current, patch clamp | – | – | IC50 | 4.46 µM
c1csc(C2=Nn3c(nnc3C3CCCCC3)SC2)c1 | ppa | enzyme activity, inhibitor | – | – | IC50 | > 100 µM
Fc1ccc2nc(Nc3ccc(F)c(F)c3)nc(NC3CCCCC3)c2c1 | ADRB2 | cAMP production, antagonist, GloSensor | – | with: isoproterenol 1 µM | IC50 | 16 ± 2 µM
COc1ccc(C(=O)CC2(O)C(=O)Nc3cc(Cl)cc(Cl)c32)cc1OC (centres unmarked) | Uncharacterized protein | inhibitor, coupled colorimetric | Trypanosoma brucei | – | IC50 | > 100 µM
Cc1cnc(Nc2ccc3c(c2)CCN(C(=O)/C=C/C(=O)C2CCC(C)CC2)C3)nc1-c1cnn(C(C)C)c1 (centres unmarked) | JAK1 (Homo sapiens, UniProt P23458) | enzyme activity, inhibitor, ADP detection | – | – | IC50 | > 0.03 µM
N[C@@H](Cc1c[nH]c2ccc(OCc3ccc(-c4ccco4)cc3)cc12)C(=O)O | SLC7A5 | transporter uptake, inhibitor, radiometric | – | – | IC50 | 31.5 µM
Cc1cc(O)c2c(c1O)C(=O)c1cc(O)cc(O)c1C2=O | MAOB | enzyme activity, inhibitor | – | – | IC50 | ~9 µM and 9.69 µM
CC(C)c1ccc(/C=C/C(=O)c2cccc(C(F)(F)F)c2)cc1 | MAOB | enzyme activity, inhibitor | – | – | IC50 | 1.41 µM
COc1ccccc1C1CCN(c2nc(C3(F)CC3)nc3cnc(N(C)CCO)cc23)CC1 | NTSR1 | G protein activation, antagonist, BRET | – | – | IC50 | 14.6 µM
C[n+]1cc(C(N)=O)ccc1N | NNMT | enzyme activity in cells, inhibitor | – | – | IC50 | 15.8 µM
Cc1ccc(C)c(C2=Nn3c(nnc3C3CCCCC3)SC2C)c1 (centres unmarked) | Uncharacterized protein | inhibitor, coupled colorimetric | Trypanosoma brucei | – | IC50 | 256 µM
Cc1nc(Nc2ccc3c(c2)/C(=C/c2ccccc2)C(=O)N3)c2ccccc2n1 | PIK3CD | enzyme activity, inhibitor, ADP detection | – | – | IC50 | 0.593 µM
CCNC(=O)/C=C/C(=O)N(CC(C)C)NC(=O)[C@H](CC(C)C)NC(=O)[C@H](CC(C)C)NC(=O)OCc1ccccc1 | Proteasome component C5/PSMB5 (Homo sapiens, UniProt P20618+P28074) | chymotrypsin-like activity, inhibitor | human 20S proteasome | with: Suc-LLVY-AMC 100 µM | IC50 | 5.5 ± 1.2 µM
CNc1cc(CF)c(C(N)=O)cn1 | NNMT | enzyme activity in cells, inhibitor | – | – | IC50 | 0.316 µM
COc1ccc(Nc2nc(NC3CCCCC3)c3ccccc3n2)cc1OC | ADRB2 | β-arrestin recruitment, antagonist | – | – | IC50 | 14 µM
CCC1(O)CCCN(C(=O)c2ccc(-c3ccc(F)c(C(N)=O)c3)cc2)C1 (centres unmarked) | DNA dC->dU-editing enzyme APOBEC-3B | enzyme activity, inhibitor, HPLC | – | – | IC50 | 693 µM
O=C(O)Cc1cc2c(cc1C(=O)c1ccc(Cl)cc1Cl)OCO2 | Gria1 | glutamate-evoked current, inhibitor, whole-cell patch clamp | HEK293T, homomeric receptor | – | IC50 | 4.15 µM

SMILES | target | test | test system | setting | endpoint | value
COc1ccc(OC)c(C2=Nn3c(nnc3-c3ccc(C)cc3)SC2)c1 | Uncharacterized protein | inhibitor, coupled colorimetric | Trypanosoma brucei | – | IC50 | 252 µM
CC1C(=O)N(C(=O)c2ccccc2)C1c1ccccc1 (racemic) | glpG (Escherichia coli, UniProt P09391) | enzyme activity, inhibitor | – | – | IC50 | 5.2 µM
COn1c(-c2ccccc2)c(C=NOCc2ccc3nc(-c4ccccc4)c(Nc4ccc(C(=O)O)cc4)n3c2)c2ccccc21 | TDP1 | enzyme activity, inhibitor | – | 100 µM, unpurified compound | inhibition | 34%
COc1ccccc1C1CCN(c2nc(C3(C)CCCC3)nc3ccc(N(C)CCO)cc23)CC1 | NTSR1 | G protein activation, antagonist | – | – | IC50 | 9.7 µM
O=C(CCNC(=O)CNC(=O)CC(c1ccccc1)(c1ccccc1)c1ccccc1)NC[C@@H]1CCCN(C[C@H]2C[C@H](F)C2)C1 | CHRM3 | ligand displacement, radioligand | – | cell membranes | IC50 | 2.1 µM
OCC1OC(n2cnc3c(NCCCc4ccccc4)ncnc32)C(O)C1O (centres unmarked) | DNA adenine methyltransferase CamA (Clostridioides difficile, UniProt Q183J3) | – | – | – | IC50 | 0.7 ± 0.1 µM
O=C(CCc1ccco1)N1C(=O)C2(NC(c3ccc(F)cc3)C3(C(=O)Nc4ccccc43)N2Cc2ccc(F)cc2)c2ccccc21 (centres unmarked) | PIK3CD | enzyme activity, inhibitor, ADP detection | – | – | IC50 | 0.348 µM
Cc1cc(Br)c2c(c1)C(O)(CC(=O)c1ccc(F)cc1)C(=O)N2 (centres unmarked) | ppa | enzyme activity, inhibitor | – | – | IC50 | > 100 µM
O=C(NC1CCC1)c1ccc2nc(-c3cccc(NS(=O)(=O)NCCc4c[nH]cn4)c3)cn2c1 | Protein AF-9, YEATS domain (Homo sapiens, UniProt P42568) | YEATS domain binding, inhibitor, HTRF | – | – | IC50 | 0.058 µM
CSc1nc(C=NOCc2ccc3nc(-c4ccccc4)c(Nc4ccc(C(=O)O)cc4)n3c2)ccc1C#N (mixture of isomers) | TDP1 | enzyme activity, inhibitor | – | 100 µM, unpurified compound | inhibition | 64.8%
C[N+](C)(C/C=C/CN1C(=O)c2ccccc2C1=O)CCCN1c2ccccc2CCc2ccc(Cl)cc21 | Uncharacterized protein | enzyme activity, inhibitor, coupled colorimetric | – | with: E. coli pyrophosphatase coupling | IC50 | 39.6 µM
COc1ccccc1C1CCN(c2nc(C3(F)CCC3)nc3c(Cl)cc(N(C)CCO)cc23)CC1 | NTSR1 | G protein activation, antagonist, BRET | – | – | IC50 | 1.91 µM
O=C(/C=C/c1ccc(O)c2oc(-c3ccc(O)c(O)c3)cc12)O[C@H](Cc1ccc(O)c(O)c1)C(=O)O | CHRM3 | DMR desensitization | HT-29 | with: acetylcholine | IC50 | 78 µM
Cc1n[nH]c(C)c1C(=O)CC1(O)C(=O)Nc2cc(Cl)cc(Cl)c21 (centres unmarked) | ppa | enzyme activity, inhibitor | – | – | IC50 | > 100 µM
Clc1ccc(Nc2nc(NC3CCCCC3)c3ccccc3n2)cc1 | ADRB2 | β-arrestin recruitment, antagonist | – | – | IC50 | 0.8 µM
Fc1ccc2[nH]c(-c3ccccn3)nc2c1 | Core-binding factor subunit beta, with RUNX1 Runt domain (Homo sapiens, UniProt Q13951) | Runt domain binding, inhibitor, FRET | – | – | IC50 | ≥ 34 µM
C[C@@H](Nc1nc2c(cnn2C(C)(C)C)c(=O)n1Cc1cccc(F)c1)c1ccc(Cl)cc1 | PDE7A (Homo sapiens, UniProt Q13946) | enzyme activity, inhibitor | – | – | IC50 | 0.827 µM
Cc1nn(-c2cccc(N)c2)c(=O)c2cnc(Nc3ccc(N4CCNCC4)cc3)nc12 | CHUK (Homo sapiens, UniProt O15111) | enzyme activity, inhibitor | – | – | IC50 | > 10 µM
CC1(C)C(=O)N=C2C1=C(O)C(=O)c1ccccc12 | EHMT1 (Homo sapiens, UniProt Q9H9B1) | enzyme activity, inhibitor | – | – | IC50 | > 100 µM
CN(C)c1nc(NCc2ccc(-c3ccccc3)cc2)c(/N=N/c2ccc(Cl)cc2)c(N(C)C)n1 | Chitinase (OfChi-h, Ostrinia furnacalis, UniProt Q4AE59) | enzyme activity, inhibitor, fluorescence | – | – | IC50 | 0.12 µM

For quick reference, copied from above:
SMILES | target | test | test system | setting | endpoint | value
O=C(O)Cc1cc2c(cc1C(=O)c1ccccc1Cl)OCO2 | Gria1 | ion current, patch clamp | – | – | IC50 | 4.46 µM
c1csc(C2=Nn3c(nnc3C3CCCCC3)SC2)c1 | ppa | enzyme activity, inhibitor | – | – | IC50 | > 100 µM
Fc1ccc2nc(Nc3ccc(F)c(F)c3)nc(NC3CCCCC3)c2c1 | ADRB2 | cAMP production, antagonist, GloSensor | – | with: isoproterenol 1 µM | IC50 | 16 ± 2 µM
COc1ccc(C(=O)CC2(O)C(=O)Nc3cc(Cl)cc(Cl)c32)cc1OC (centres unmarked) | Uncharacterized protein | inhibitor, coupled colorimetric | Trypanosoma brucei | – | IC50 | > 100 µM
Cc1cnc(Nc2ccc3c(c2)CCN(C(=O)/C=C/C(=O)C2CCC(C)CC2)C3)nc1-c1cnn(C(C)C)c1 (centres unmarked) | JAK1 (Homo sapiens, UniProt P23458) | enzyme activity, inhibitor, ADP detection | – | – | IC50 | > 0.03 µM
